Experimental data of several laboratories.
Protocols differ between the studies behind these lines. Values joined by “and” are separate records of one study, mostly repeats; a detail may differ. ± gives the spread as reported.

| SMILES | test | test system | setting | tissue uptake |
| --- | --- | --- | --- | --- |
| CC[C@H](C)[C@H](NC(=O)C[C@H](NC(=O)CN1CCN2CCN(CC1)CC(=O)[O][Al]([18F])[O]C(=O)C2)C(=O)O)C(=O)N[C@H]1CCc2cccc3c2N(C1=O)[C@H](C(=O)NCc1cn[nH]n1)C3 | – | C57BL/6J mouse, MC-38 tumour, bone | 30 min post injection, PBS treated | 0.58 ± 0.15 %ID/g |
| CN(Cc1ccccc1)C(=O)CN1CCN(CC(=O)[O-])CCN(Cc2cccc(C(=O)[O-])n2)CC1.[177Lu+3] | – | BALB/c mouse, large intestine | intravenous, 1 h | 0.22 ± 0.03 %ID/g |
| COc1ccc2c(c1)C(C)(C)C(/C=C/C1=C(Oc3ccc(C(=O)NCCCCOc4cc(CN(Cc5ccccn5)Cc5ccccn5)cc(CN(Cc5ccccn5)Cc5ccccn5)c4)cc3)C(=C/C=C3/N(CCCCS(=O)(=O)[O-])c4ccc(OC)cc4C3(C)C)CCC1)=[N+]2CCCCS(=O)(=O)[O-].O=[N+]([O-])[O-].O=[N+]([O-])[O-].[99Tc+].[C-]#[O+].[C-]#[O+].[C-]#[O+].[Zn+2] | – | BALB/c mouse, Staphylococcus aureus myositis, adrenals | 12 h | 3.66 %ID/g and 6.37 %ID/g and 7.29 %ID/g and 3.2 %ID/g |
| Cc1n[nH]c(C)c1CCCOc1cc(C(=O)NCCCCC(NC(=O)CN2CCN(CC(=O)[O-])CCN(CC(=O)[O-])CCN(CC(=O)[O-])CC2)C(=O)NCC2CCC(C(=O)NC(Cc3ccc4ccccc4c3)C(=O)NCCCCC(NC(=O)NC(CCC(=O)O)C(=O)O)C(=O)O)CC2)ccc1F.[68Ga+3] (centres unmarked) | PET/CT | mouse 22Rv1 xenograft, kidney | 1 h | 29.5 ± 6.32 %ID/g |
| O=C(O)CCCOc1ccc([18F])cc1-c1cc(-c2ccccc2C(F)(F)F)n(-c2ccccc2)n1 | – | mouse, bladder | intravenous, dose not given, 180 min | 0.1 ± 0.14 %ID/g |
| COc1ccc(Nc2nc(Nc3ccc(OCCOCCOCC[18F])cc3)ncc2Br)cc1 | – | ICR mouse, S180 sarcoma-bearing, blood | intravenous, 370 kBq in 100 µL, 60 min | 2.35 ± 0.22 %ID/g |
| COc1cccc(OC)c1-c1cc(C(=O)NC2(C(=O)O)C3CC4CC(C3)CC2C4)nn1-c1ccc(C(=O)N(C)CCCN(C)CCCN(C)C(=O)[C@H](CCCCNC(=O)[C@H](CC(C)C)NC(=O)C2OC2C(=O)O)NC(=O)CN2CCN(CC(=O)[O-])CCN(CC(=O)[O-])CCN(CC(=O)[O-])CC2)cc1C(C)C.[177Lu+3] (mixture of isomers) | – | mouse, HT-29 xenograft, liver | 4 h post injection | 2.6 %ID/g |
| COc1ccc(Nc2nc(Nc3ccc(OCCOCC[18F])cc3)ncc2Br)cc1 | – | ICR mouse, S180 sarcoma-bearing, blood | intravenous, 370 kBq in 100 µL, 60 min | 3.24 ± 0.25 %ID/g |
| O=C([O-])CN1CCN(CC(=O)[O-])CCN(CC(=O)NCC2CCC(C(=O)NC(Cc3ccc4ccccc4c3)C(=O)NCCCCC(NC(=O)NC(CCC(=O)O)C(=O)O)C(=O)O)CC2)CCN(CC(=O)[O-])CC1.[68Ga+3] (centres unmarked) | PET/CT | mouse 22Rv1 xenograft, blood | 1 h | 0.31 ± 0.07 %ID/g |
| O=C([O-])CN1CCN(CC(=O)[O-])CCN(Cc2cccc(C(=O)[O-])n2)CC1.[44Sc+3] | – | BALB/c mouse, small intestine | intravenous, 1 h | 0.38 ± 0.08 %ID/g |
| N#C[C@@H]1CC(F)(F)CN1C(=O)CNC(=O)c1ccnc2c(NC(=O)[C@H](CCCCNC(=O)CCOCCOCCOCCOCCOCCOCCNC(=O)CN3CCN(CC(=O)[O-])CCN(CC(=O)[O-])CCN(CC(=O)[O-])CC3)NC(=O)CCCc3ccc(I)cc3)cccc12.[177Lu+3] | – | mouse, U-87 MG tumour xenograft, salivary gland | 96 h | 0.36 ± 0.1 %ID/g |

Some of these lines once more:
| SMILES | test | test system | setting | tissue uptake |
| --- | --- | --- | --- | --- |
| COc1ccc(Nc2nc(Nc3ccc(OCCOCC[18F])cc3)ncc2Br)cc1 | – | ICR mouse, S180 sarcoma-bearing, blood | intravenous, 370 kBq in 100 µL, 60 min | 3.24 ± 0.25 %ID/g |
